# Results pooled from the literature.
# Each line is one published result; not all experiments were run side by side. ± gives the spread as reported.
# Target: Broad substrate specificity ATP-binding cassette transporter ABCG2 (ABCG2, Homo sapiens, UniProt Q9UNQ0)
# Time: 30 min
# Sequence (Q9UNQ0 1-655, as in one of the studies): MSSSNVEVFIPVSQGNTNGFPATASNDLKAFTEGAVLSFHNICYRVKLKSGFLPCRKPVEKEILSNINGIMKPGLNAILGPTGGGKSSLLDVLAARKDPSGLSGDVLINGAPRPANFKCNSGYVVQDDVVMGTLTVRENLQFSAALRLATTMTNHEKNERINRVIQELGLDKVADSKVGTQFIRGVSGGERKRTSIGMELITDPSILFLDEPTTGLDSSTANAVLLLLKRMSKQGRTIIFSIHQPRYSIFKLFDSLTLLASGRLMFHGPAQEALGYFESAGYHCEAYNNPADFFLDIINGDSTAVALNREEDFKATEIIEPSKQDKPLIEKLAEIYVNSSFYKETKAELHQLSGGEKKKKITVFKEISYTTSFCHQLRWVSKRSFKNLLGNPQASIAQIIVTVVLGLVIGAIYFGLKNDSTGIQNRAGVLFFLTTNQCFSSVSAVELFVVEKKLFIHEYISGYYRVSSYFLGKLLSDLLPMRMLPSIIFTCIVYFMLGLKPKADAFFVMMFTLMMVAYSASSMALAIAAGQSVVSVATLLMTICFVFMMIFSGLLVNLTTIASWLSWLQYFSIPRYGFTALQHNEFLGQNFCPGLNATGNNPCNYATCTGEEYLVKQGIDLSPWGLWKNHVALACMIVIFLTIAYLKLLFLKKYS
Compound,assay,system,setting,scale,inhibition [%]
O=C1CCCN1C1CCN(CC2CC(c3ccccc3)=NO2)c2ccccc21 (stereo not shown),"mitoxantrone efflux, flow cytometry",HEK293 overexpressing ABCG2,"10 µM, with: mitoxantrone 10 µM",,> 50
CC(=O)OCCc1cc(O)c(O)c(-c2cc(CCOC(C)=O)cc(O)c2O)c1,"mitoxantrone transport, inhibitor",,"10 µM, with: mitoxantrone 5 µM",relative to: Ko143 0.5 µM,0.1 ± 1.8
COc1ccc(/C=C/C(=O)c2ccc3c(c2)OCO3)cc1OC,"mitoxantrone efflux, flow cytometry",HEK293 transfected with ABCG2,"5 µM, with: mitoxantrone",relative to: 5 µM GF120918 as 100%,73.1 ± 4.5
CC(C)n1c2c(=O)ccc(=O)c2c2c(=O)c3ccccc3c21,"mitoxantrone efflux, inhibitor, flow cytometry",HEK293 transfected with ABCG2,"10 µM, with: mitoxantrone 5 µM",relative to: Ko143 1 µM,36
CC(=O)OCCc1ccc(O)c(-c2cc(CCOC(C)=O)ccc2O)c1,"mitoxantrone transport, inhibitor",,"10 µM, with: mitoxantrone 5 µM",relative to: Ko143 0.5 µM,10.1 ± 2.7
O=C(/C=C/c1ccc(Br)cc1)c1ccc2ccccc2c1,"mitoxantrone efflux, flow cytometry",HEK293 transfected with ABCG2,"5 µM, with: mitoxantrone",relative to: 5 µM GF120918 as 100%,6.7 ± 1.3
COc1cc(C2=NOC(CN3CCC(N4CCCC4=O)c4cc(Cl)ccc43)C2)cc(OC)c1OC (stereo not shown),"mitoxantrone efflux, flow cytometry",HEK293 overexpressing ABCG2,"10 µM, with: mitoxantrone 10 µM",,> 50
O=C1CCCc2c1c1c(n2Cc2ccccc2)-c2ccccc2C1=O,"mitoxantrone efflux, inhibitor, flow cytometry",HEK293 transfected with ABCG2,"10 µM, with: mitoxantrone 5 µM",relative to: Ko143 1 µM,100 ± 14
COc1cc(O)c(C(=O)/C=C/c2ccc(F)cc2)c(OC)c1,"mitoxantrone efflux, flow cytometry",HEK293 transfected with ABCG2,"5 µM, with: mitoxantrone",relative to: 5 µM GF120918 as 100%,60.9 ± 6.7
COc1cc(C2=NOC(CN3CCC(N4CCCC4=O)c4ccccc43)C2)cc(OC)c1OC (stereo not shown),"mitoxantrone efflux, flow cytometry",HEK293 overexpressing ABCG2,"10 µM, with: mitoxantrone 10 µM",,> 50
